Measurements from different studies.
Numbered parts are unrelated; each lists some results of a single study.

Sample 1
Target: Fragile X messenger ribonucleoprotein 1, C-terminal low-complexity region (Fmr1, Mus musculus, UniProt P35922)
Method: RNA Bind-n-Seq
Molecule type: RNA
Medium: in vitro
Concentration: 200 nM
Setting: whole 134-nt RNA, ends assumed
Together with: 150 mM LiCl
Relative to: input library
Reading: higher = stronger binding
All molecules: 7-deaza-guanosine replaces G
All sequences stand within: GGGAGUUCUACAGUCCGACGAUC … UGGAAUUCUCGGGUGUCAAGG
Sequence	log2 enrichment
CUCAAGUCCUGUGCUACACAUCGUAUGUACCGAAUCGGGGUUGGUUGGUUGGGAAAGUAUUAUGUUACGCCGUUCGGAUCUGCACUUCCA	-0.437
GCAGGAAGUAAAAACAAAUGGAAAUGCUUCGGAUAGUGGCAGGGGUGAGGGUUGCUAAGGAAAGGGUGGGAUGGGAGUGGGUAAAGAGUU	1.41
UGGUAUUCAUGGGUAGUUUGAAAUAUCCAGAUGAGAAUGGAUUUGAUGCCUUCCUGAAGAAGCAUGGGGGUAGUGAUAAUGCCUCAACUG	-1.05
CUCAAGUCCUGUGCUACACAUCGUAUGUACCGAAUCGGCCGGGGCCGGCCGGGAAAGUAUUAUGUUACGCCGUUCGGAUCUGCACUUCCA	0.14
CAAGUCCUGUGCUACACAUCGUAUGUACCGAAUCGGGGCCCGGCCCGGGCCCGGGGAAAGUAUUAUGUUACGCCGUUCGGAUCUGCACUU	-2.21
CACAGACAACACGCACCCACACAGAAAAAGAGGGAAGGGGUUGGGAUGGGGACAGGGUGCACAGCAGGGCGGGGUAGGACCCCAGCCCCU	0.518
AAGUCCUGUGCUACACAUCGUAUGUACCGAAUCGGAAAAAAAGGUUUGGAAAAAGGAAAGUAUUAUGUUACGCCGUUCGGAUCUGCACUU	-2.89
CACAGACAACACGCACCCACACAGACACAGAGGGAAGGGGUUGGGAUGGGGACAGGGUGCACAGCAGGGGGGGGUAGGACCCCAGCCCCU	1.38

Sample 2
Target: Sal-like protein 4, full length isoform B (SALL4, Homo sapiens, UniProt Q9UJQ4-2, residues 1-616)
Method: universal PBM
Molecule type: double-stranded DNA, one strand shown
Medium: in vitro
Concentration: not given
Setting: 8-mer, flanks averaged, mean of replicates
Reading: higher = stronger binding
Target sequence (chain): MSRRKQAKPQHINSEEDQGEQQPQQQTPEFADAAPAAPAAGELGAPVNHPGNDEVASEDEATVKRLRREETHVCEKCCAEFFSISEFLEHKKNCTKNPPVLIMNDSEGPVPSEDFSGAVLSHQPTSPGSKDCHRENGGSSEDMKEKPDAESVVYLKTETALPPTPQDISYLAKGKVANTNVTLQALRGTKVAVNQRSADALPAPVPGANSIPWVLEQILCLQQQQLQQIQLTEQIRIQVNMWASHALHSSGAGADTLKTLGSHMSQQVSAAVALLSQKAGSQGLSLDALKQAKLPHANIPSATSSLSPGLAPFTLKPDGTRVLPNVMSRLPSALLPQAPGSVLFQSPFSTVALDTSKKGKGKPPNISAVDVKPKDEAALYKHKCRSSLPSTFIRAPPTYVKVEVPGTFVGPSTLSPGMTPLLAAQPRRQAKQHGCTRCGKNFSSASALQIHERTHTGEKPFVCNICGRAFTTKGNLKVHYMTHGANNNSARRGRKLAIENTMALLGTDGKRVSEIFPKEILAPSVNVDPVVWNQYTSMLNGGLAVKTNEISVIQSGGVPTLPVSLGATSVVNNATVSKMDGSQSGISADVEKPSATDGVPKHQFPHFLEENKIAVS
Sequence	E-score
CCGACTGC	-0.332
CCTTCTAA	0.129
TCAATGGA	-0.00996
CACACGCG	-0.0294
CAGATCCC	-0.118
CGCGCGCG	-0.369
CCTGCTCG	-0.302
GACTATAA	0.265
CCAGAATA	0.175
AGTAGGAA	0.0738
AACGTCCT	0.0373
CCATTCTA	0.0837
ACAATCCA	0.203
AACCGGCT	-0.125
CTACTCCA	-0.0551
AGAAACTC	-0.0673
AAAGAGCA	0.032
CGTGGCTC	-0.288
AGCAGATC	0.0543

Sample 3
Target: RNA binding protein fox-1 homolog 2, RRM domain, GST-SBP tag (RBFOX2, Homo sapiens, UniProt O43251-10, residues 100-194)
Method: RNA Bind-n-Seq
Molecule type: RNA
Medium: in vitro
Concentration: 365 nM
Setting: natural RNA segment, single round, ends assumed
Relative to: no-protein control
Reading: higher = stronger binding
All sequences stand within: GGGAGUUCUACAGUCCGACGAUC … UGGAAUUCUCGGGUGCCAA
Residues (chain): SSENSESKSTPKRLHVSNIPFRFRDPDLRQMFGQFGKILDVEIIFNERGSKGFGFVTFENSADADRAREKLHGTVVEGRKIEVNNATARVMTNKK
Sequence	RBNS enrichment (R)
GCAAAAUGAAGUUGGUGGACUCCGCCUUAAUGAGAAAGGCUUAGAGCAGUUAUGAGGUGCUGUUAUGCUGGGAGUCCCUGAUCUAUCAGCAUAGGAGAAAAAAGUAUGAU	2.68
GAGGCCAUGAGGAGCGCGAGGUCGCCAGCAGCCCCACUGGGCCUCCCACACCAUCUGAGUGACUUGAAUUCCAGGGUUGGGCUCUGUCUUGAGUCUCCACAUCAGUCUCA	0.547
GUCGCAAAUGAAGCUGCCCCACUCCCCCGGCACCCUGCAGCUUUAGUUUACUAAACUAGAAGUCCUCAUAGUUUAAAAUGGCCUCAGCAGGCCUAGUGUAUACAAACUGG	0.192
GCUUCAAGUUGAAUAUGUAUUGUGUAUAUACCUCAAGUUCAGGUUAAUGGCUUUGAUUUGUGCUCUAAAGCAAAGCAAAUAACACAGGUUAAUGGUAACUUGUUGUUCUC	0.446
GUUUCCCCUCAAUCAGGUUGAUAAGACCUUCUAAGCUUCUGCCAAGCAUCUUCAGUGCUCACAAUCAUGUGUCCCCUAGCCUCACCCCUGCAGUUCAGGCCUGUUUCUGU	1.33
UCCAGAGUAGCUGGGACUACAAACGUGUGUCACCAGGCCCAGCUAAUUUUUGUAUUUUUAAUAAAGACGGGGUUUCAUCAUGUUGGCCAGGGUGGUCUCGAUCUCUUGAC	0.919
GCUCCAACAUUUUGAUUCCUGUUAAUUUUGUUCUUUAAUUAAAUGACUACUUAUUACAGGAAAUGAAUAAAGGCUUUCACUUUCUUGGGGUUGGGAUGAGGUAUAGCUGG	0.467
CUGAUUCAAAAUGUGUCCACACUUCGUAGAGUCUAGAAUACUGGACUGUAGAGAAACUACUUUGAACCUGUGGUUGAAAACGAUGAAAUGUGAUAAAUCUUUUUGUAGUU	0.258

Sample 4
Target: Histone acetyltransferase KAT6A, winged helix 2, GST fusion (KAT6A, Homo sapiens, UniProt Q92794, residues 85-181)
Method: protein binding microarray
Molecule type: double-stranded DNA, one strand shown
Medium: in vitro
Concentration: not given
Setting: 8-mer, flanks averaged, mean of 2 arrays, mostly near background
Relative to: not given
Reading: higher = stronger binding
Target sequence (chain): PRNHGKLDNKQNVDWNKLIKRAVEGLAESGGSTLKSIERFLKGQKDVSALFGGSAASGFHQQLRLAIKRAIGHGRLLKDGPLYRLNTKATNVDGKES
Sequence	E-score
CTCGAATC	-0.0394
GGACTTAC	-0.119
CTGTTGGA	0.113
CTTCAGCA	-0.0556
CATAGTGC	-0.0477
AACTCATC	-0.0243
AGTGCTCG	-0.017
AAGAAGCA	0.161
ACAGTACA	-0.271
TACACGCA	-0.184
CAAAATGC	0.0392
ATAAGATC	-0.0639
CCGGACAA	-0.0577
CACGGAGA	0.134
ATACTATG	0.0401
GTAATTAC	0.0118
TATTAGCA	0.0583
TAGTACAA	-0.0679
CTCGGTCA	-0.0427
TGAGAGCA	0.14

Sample 5
Target: Max dimerization protein 1, bHLH-zipper, MAX partner unstated (MXD1, Homo sapiens, UniProt Q05195, residues 56-136)
Method: protein-binding microarray
Molecule type: double-stranded DNA, one strand shown
Medium: in vitro
Concentration: not given
Setting: k-mer, scored over probes, only values ≥0.25
Reading: higher = stronger binding
Construct (chain): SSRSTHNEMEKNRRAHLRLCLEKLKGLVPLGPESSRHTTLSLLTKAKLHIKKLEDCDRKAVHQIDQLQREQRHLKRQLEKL
Sequence	E-score
AGCGTGGA	0.318
AACAGGTG	0.354
CACCCATG	0.312
ACCACGTC	0.262
CCGCCACG	0.343
CGTGGTTA	0.285
CCCGCCGC	0.279
ACGTGCGC	0.407
ATGGGGGG	0.365
CGTGGTGC	0.32
CCGCCCCA	0.361
AACACGTT	0.395
AACGTGCA	0.383
CGTGCCCC	0.379
CATGTTAC	0.306
ATGTCACG	0.326
AAACCATG	0.366
